# Assay results gathered from unrelated publications.
# Compare with care: the assays were run in different laboratories.
# B1: sso0001 1-202 C32A (Sulfolobus solfataricus, UniProt Q97TX9); chain MITEFLLKKKLEEHLSHVKEENTIYVTDLVRAPRRVRYESEYKELAISQVYAPSAILGDILHLGLESVLKGNFNAETEVETLREINVGGKVYKIKGRADAIIRNDNGKSIVIEIKTSRSDKGLPLIHHKMQLQIYLWLFSAEKGILVYITPDRIAEYEINEPLDEATIVRLAEDTIMLQNSPRFNWECKYCIFSVICPAKLT
# B2: REC107 41-224 (Saccharomyces cerevisiae, UniProt P21651); chain KVANAGALEESDKQILEWAGKLELESMELRENSDKLIKVLNENSKTLCKSLNKFNQLLEQDAATNGNVKTLIKDLASQIENQLDKVSTAMLSKGDEKKTKSDSSYRQVLVEEISRYNSKITRHVTNKQHETEKSMRCTQEMLFNVGSQLEDVHKVLLSLSKDMHSLQTRQTALEMAFREKADHA
# B3: HOGA1 26-327 (Homo sapiens, UniProt Q86XE5); sequence looked up; chain ASGEGKKVDIAGIYPPVTTPFTATAEVDYGKLEENLHKLGTFPFRGFVVQGSNGEFPFLTSSERLEVVSRVRQAMPKNRLLLAGSGCESTQATVEMTVSMAQVGADAAMVVTPCYYRGRMSSAALIHHYTKVADLSPIPVVLYSVPANTGLDLPVDAVVTLSQHPNIVGMKDSGGDVTRIGLIVHKTRKQDFQVLAGSAGFLMASYALGAVGGVCALANVLGAQVCQLERLCCTGQWEDAQKLQHRLIEPNAAVTRRFGIPGLKKIMDWFGYYGGPCRAPLQELSPAEEEALRMDFTSNGWL
# B4: GGPS1 R235C (Homo sapiens, UniProt O95749); sequence looked up; chain MEKTQETVQRILLEPYKYLLQLPGKQVRTKLSQAFNHWLKVPEDKLQIIIEVTEMLHNASLLIDDIEDNSKLRRGFPVAHSIYGIPSVINSANYVYFLGLEKVLTLDHPDAVKLFTRQLLELHQGQGLDIYWRDNYTCPTEEEYKAMVLQKTGGLFGLAVGLMQLFSDYKEDLKPLLNTLGLFFQIRDDYANLHSKEYSENKSFCEDLTEGKFSFPTIHAIWSRPESTQVQNILCQRTENIDIKKYCVHYLEDVGSFEYTRNTLKELEAKAYKQIDARGGNPELVALVKHLSKMFKEENE
# B5: rga8 1-420 K62A/K64A/K65A/K141A/K142A/K144A (Schizosaccharomyces pombe, UniProt Q09697); sequence looked up; chain MISSFSNGFWSKDYATGVKKLFDCLDNGVEENEQVKNLLKLYKEANEEFGEKLQEITKECLAGAAPENTEDGATSNKAFEGLRSEIANQGKQHIRIAKDLETLIIAPFSKMSIDHSQKLQTSQQVLTNQIKSYEKKYYTLAATASAYYNKCRNLEDYEEESKESNETTSEAITDLTTVSSPQQQSLLENDDDLIQLGFMEFRPEELKEVLAQVLQEIPLQDYRVPILGTYPNTCSGNIIVSWLQENLPVPTLVAAEAFGQDLIAQGFLRHMGVGGSFVNSTNFHYQWKDKAFQFAGLNSVDSLVENAKALPLVGEYLSDYISHRKLYSSETQSQRLKREVLDANKIYSESVVDLDKCRTLVEETIADHLQFLQKCETDRVLYYKDFFMDLSTIISNFLPSMKLLADQIVVYQEIIQPESD
# B6: Ahcy 1-432 (Drosophila melanogaster, UniProt Q27580); chain MSKPSYKVADISLAEWGRKAIIIAENEMPGLMACRKKYGPSKPLKGARITGCLHMTVQTAVLIETLVELGAQVQWSSCNIFSTQDNAAAAIAATGVPVYAWKGETDEEYMWCIEQTLVFPDGQPLNMILDDGGDLTNLVHEKFPQYLKNIKGLSEETTTGVHNLYKMFKEGRLGVPAINVNDSVTKSKFDNLYGCRESLIDGIKRATDVMIAGKVCCVAGYGDVGKGCAQALKGFGGRVIVTEVDPINALQAAMEGYEVTTMEEASKEASIFVTTTGCRDIITSVHLQQMPDDAIVCNIGHFDIEIDVDWLNANAKEKVNVKPQVDRYTMQSGKHIILLAEGRLVNLGCAHGHPSFVMSNSFTNQVLAQIELWTKSDKYAVGVHVLPKILDEEVASLHLEKLGVKLTKLTEKQATYLGVSQTGPFKPDHYRY
# B7: ADAR1 127-end 127-1226 P193A (human, UniProt P55265); sequence looked up; chain SSHFQELSIYQDQEQRILKFLEELGEGKATTAHDLSGKLGTPKKEINRVLYSLAKKGKLQKEAGTPALWKIAVSTQAWNQHSGVVRPDGHSQGAPNSDPSLEPEDRNSTSVSEDLLEPFIAVSAQAWNQHSGVVRPDSHSQGSPNSDPGLEPEDSNSTSALEDPLEFLDMAEIKEKICDYLFNVSDSSALNLAKNIGLTKARDINAVLIDMERQGDVYRQGTTPPIWHLTDKKRERMQIKRNTNSVPETAPAAIPETKRNAEFLTCNIPTSNASNNMVTTEKVENGQEPVIKLENRQEARPEPARLKPPVHYNGPSKAGYVDFENGQWATDDIPDDLNSIRAAPGEFRAIMEMPSFYSHGLPRCSPYKKLTECQLKNPISGLLEYAQFASQTCEFNMIEQSGPPHEPRFKFQVVINGREFPPAEAGSKKVAKQDAAMKAMTILLEEAKAKDSGKSEESSHYSTEKESEKTAESQTPTPSATSFFSGKSPVTTLLECMHKLGNSCEFRLLSKEGPAHEPKFQYCVAVGAQTFPSVSAPSKKVAKQMAAEEAMKALHGEATNSMASDNQPEGMISESLDNLESMMPNKVRKIGELVRYLNTNPVGGLLEYARSHGFAAEFKLVDQSGPPHEPKFVYQAKVGGRWFPAVCAHSKKQGKQEAADAALRVLIGENEKAERMGFTEVTPVTGASLRRTMLLLSRSPEAQPKTLPLTGSTFHDQIAMLSHRCFNTLTNSFQPSLLGRKILAAIIMKKDSEDMGVVVSLGTGNRCVKGDSLSLKGETVNDCHAEIISRRGFIRFLYSELMKYNSQTAKDSIFEPAKGGEKLQIKKTVSFHLYISTAPCGDGALFDKSCSDRAMESTESRHYPVFENPKQGKLRTKVENGEGTIPVESSDIVPTWDGIRLGERLRTMSCSDKILRWNVLGLQGALLTHFLQPIYLKSVTLGYLFSQGHLTRAICCRVTRDGSAFEDGLRHPFIVNHPKVGRVSIYDSKRQSGKTKETSVNWCLADGYDLEILDGTRGTVDGPRNELSRVSKKNIFLLFKKLCSFRYRRDLLRLSYGEAKKAARDYETAKNYFKKGLKDMGYGNWISKPQEEKNFYLCPV
# B8: VANGL1 (Homo sapiens, UniProt Q8TAA9-1); sequence looked up; chain MDTESTYSGYSYYSSHSKKSHRQGERTRERHKSPRNKDGRGSEKSVTIQPPTGEPLLGNDSTRTEEVQDDNWGETTTAITGTSEHSISQEDIARISKDMEDSVGLDCKRYLGLTVASFLGLLVFLTPIAFILLPPILWRDELEPCGTICEGLFISMAFKLLILLIGTWALFFRKRRADMPRVFVFRALLLVLIFLFVVSYWLFYGVRILDSRDRNYQGIVQYAVSLVDALLFIHYLAIVLLELRQLQPMFTLQVVRSTDGESRFYSLGHLSIQRAALVVLENYYKDFTIYNPNLLTASKFRAAKHMAGLKVYNVDGPSNNATGQSRAMIAAAARRRDSSHNELYYEEAEHERRVKKRKARLVVAVEEAFIHIQRLQAEEQQKAPGEVMDPREAAQAIFPSMARALQKYLRITRQQNYHSMESILQHLAFCITNGMTPKAFLERYLSAGPTLQYDKDRWLSTQWRLVSDEAVTNGLRDGIVFVLKCLDFSLVVNVKKIPFIILSEEFIDPKSHKFVLRLQSETSV
# B9: comFB 1-98 (Bacillus subtilis, UniProt P39146); chain MLVNSKEIVMKELLDRYMDQLHMACTCQVCQNDVLALSLNKVSPSYVTDFKKIAYTKAELVDKQKNTAMLVILAESAAVVSESPSDLCQTKQEEAFIN
# B10: SART3 94-877 (Homo sapiens, UniProt Q15020); sequence looked up; chain NQLEIERLEEQLSINVYDYNCHVDLIRLLRLEGELTKVRMARQKMSEIFPLTEELWLEWLHDEISMAQDGLDREHVYDLFEKAVKDYICPNIWLEYGQYSVGGIGQKGGLEKVRSVFERALSSVGLHMTKGLALWEAYREFESAIVEAARLEKVHSLFRRQLAIPLYDMEATFAEYEEWSEDPIPESVIQNYNKALQQLEKYKPYEEALLQAEAPRLAEYQAYIDFEMKIGDPARIQLIFERALVENCLVPDLWIRYSQYLDRQLKVKDLVLSVHNRAIRNCPWTVALWSRYLLAMERHGVDHQVISVTFEKALNAGFIQATDYVEIWQAYLDYLRRRVDFKQDSSKELEELRAAFTRALEYLKQEVEERFNESGDPSCVIMQNWARIEARLCNNMQKARELWDSIMTRGNAKYANMWLEYYNLERAHGDTQHCRKALHRAVQCTSDYPEHVCEVLLTMERTEGSLEDWDIAVQKTETRLARVNEQRMKAAEKEAALVQQEEEKAEQRKRARAEKKALKKKKKIRGPEKRGADEDDEKEWGDDEEEQPSKRRRVENSIPAAGETQNVEVAAGPAGKCAAVDVEPPSKQKEKAASLKRDMPKVLHDSSKDSITVFVSNLPYSMQEPDTKLRPLFEACGEVVQIRPIFSNRGDFRGYCYVEFKEEKSALQALEMDRKSVEGRPMFVSPCVDKSKNPDFKVFRYSTSLEKHKLFISGLPFSCTKEELEEICKAHGTVKDLRLVTNRAGKPKGLAYVEYENESQASQAVMKMDGMTIKENIIKVAISN
# B11: xseA H238A (Escherichia coli, UniProt P04994); sequence looked up; chain MLPSQSPAIFTVSRLNQTVRLLLEHEMGQVWISGEISNFTQPASGHWYFTLKDDTAQVRCAMFRNSNRRVTFRPQHGQQVLVRANITLYEPRGDYQIIVESMQPAGEGLLQQKYEQLKAKLQAEGLFDQQYKKPLPSPAHCVGVITSKTGAALHDILHVLKRRDPSLPVIIYPAAVQGDDAPGQIVRAIELANQRNECDVLIVGRGGGSLEDLWSFNDERVARAIFTSRIPVVSAVGAETDVTIADFVADLRAPTPSAAAEVVSRNQQELLRQVQSTRQRLEMAMDYYLANRTRRFTQIHHRLQQQHPQLRLARQQTMLERLQKRMSFALENQLKRTGQQQQRLTQRLNQQNPQPKIHRAQTRIQQLEYRLAETLRAQLSATRERFGNAVTHLEAVSPLSTLARGYSVTTATDGNVLKKVKQVKAGEMLTTRLEDGWIESEVKNIQPVKKSRKKVH
# Sequence of UniProt P26368 (whole entry, looked up): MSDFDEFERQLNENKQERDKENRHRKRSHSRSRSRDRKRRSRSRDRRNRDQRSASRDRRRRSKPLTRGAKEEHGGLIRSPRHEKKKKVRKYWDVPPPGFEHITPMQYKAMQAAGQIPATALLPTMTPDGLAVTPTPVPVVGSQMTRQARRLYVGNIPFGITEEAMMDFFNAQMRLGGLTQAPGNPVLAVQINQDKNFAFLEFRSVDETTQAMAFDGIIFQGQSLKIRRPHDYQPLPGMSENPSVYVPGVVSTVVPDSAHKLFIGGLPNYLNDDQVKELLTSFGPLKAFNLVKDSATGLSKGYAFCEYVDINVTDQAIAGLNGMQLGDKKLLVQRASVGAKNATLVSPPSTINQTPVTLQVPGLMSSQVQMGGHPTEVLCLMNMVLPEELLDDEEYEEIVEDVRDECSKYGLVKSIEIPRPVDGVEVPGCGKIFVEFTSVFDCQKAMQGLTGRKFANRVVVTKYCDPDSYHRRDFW
# Sequence of UniProt P54998 (whole entry, looked up): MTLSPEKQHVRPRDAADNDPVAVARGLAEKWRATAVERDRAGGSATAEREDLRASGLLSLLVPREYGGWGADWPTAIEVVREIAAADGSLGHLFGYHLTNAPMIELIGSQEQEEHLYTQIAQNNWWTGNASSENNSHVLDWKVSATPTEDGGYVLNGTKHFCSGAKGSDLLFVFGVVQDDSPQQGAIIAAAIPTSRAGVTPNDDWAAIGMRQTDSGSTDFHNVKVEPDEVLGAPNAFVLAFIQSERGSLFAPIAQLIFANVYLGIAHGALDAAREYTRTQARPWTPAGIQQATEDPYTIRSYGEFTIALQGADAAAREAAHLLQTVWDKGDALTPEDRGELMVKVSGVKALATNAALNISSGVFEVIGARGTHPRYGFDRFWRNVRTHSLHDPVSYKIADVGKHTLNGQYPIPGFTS
# Sequence of UniProt O34703 (whole entry, looked up): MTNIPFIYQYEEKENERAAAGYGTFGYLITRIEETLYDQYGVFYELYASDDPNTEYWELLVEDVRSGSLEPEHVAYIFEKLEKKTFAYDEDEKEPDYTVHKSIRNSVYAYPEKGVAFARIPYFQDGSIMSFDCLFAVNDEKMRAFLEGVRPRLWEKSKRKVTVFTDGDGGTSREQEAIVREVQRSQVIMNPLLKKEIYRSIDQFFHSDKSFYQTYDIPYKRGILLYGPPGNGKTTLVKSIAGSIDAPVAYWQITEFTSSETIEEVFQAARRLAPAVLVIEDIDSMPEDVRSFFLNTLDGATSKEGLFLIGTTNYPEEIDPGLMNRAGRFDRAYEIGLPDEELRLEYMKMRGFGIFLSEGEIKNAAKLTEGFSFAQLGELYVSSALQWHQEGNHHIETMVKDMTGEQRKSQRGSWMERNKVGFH
Molecule,target or system,assay,system,setting,scale,measurement,value
human cation-independent mannose-6-phosphate receptor,PP6C (human),"co-immunoprecipitation, IP-MS",CYB5R4 knockout cells,concentration not given,relative to: CYB5R4 knockout over parental,log2 fold change,-1.81
B1 (sso0001 1-202 C32A),itself,SEC,,,,subunits per oligomer,5 protomers
"dszC (Rhodococcus erythropolis, UniProt P54998)",itself,SEC,,,,subunits per oligomer,4
B2 (REC107 41-224),itself,SEC-SAXS,,,,subunits per oligomer,4
B3 (HOGA1 26-327),itself,SEC,,wild type,,subunits per oligomer,4
B4 (GGPS1 R235C),itself,SEC-MALS,,,,subunits per oligomer,6
B5,itself,cross-linking,,,,subunits per oligomer,2
B6 (Ahcy 1-432),itself,crystal structure,,,,subunits per oligomer,4
B7 (ADAR1 127-end 127-1226 P193A),itself,SEC,,,,subunits per oligomer,2
B8 (VANGL1),itself,cryo-EM structure,,D3 symmetry imposed,,subunits per oligomer,6
"MKGMSKMAQFNLRWAREVLDLVRKVAEENGRSVNSEIYQRVMESFKKEGRIGA (Arc repressor 1-53 P8A/P15A (P22 phage, UniProt P03050))",itself,SEC,,,,subunits per oligomer,2
APVDSMLKDMATIILSTFLLIGWVAFIITYPLSMH (IRE1α 435-469),itself,SDS-PAGE,peptide,,,subunits per oligomer,4
B9 (comFB 1-98),itself,SEC-MALS,,,,subunits per oligomer,2
B10 (SART3 94-877),itself,SEC-MALS,,,,subunits per oligomer,2
RNJ fragment (Arabidopsis thaliana) (sequence not shown),itself,SEC,,,,subunits per oligomer,4
GAACUUCAG (ssRNA),"U2AF2 148-342 (Homo sapiens, UniProt P26368)",sequencing of bound RNA,RNA,motif only,,Kd,10.1 µM
"yjoB (Bacillus subtilis, UniProt O34703)",itself,crystal structure,,,,subunits per oligomer,6
B11 (xseA H238A),itself,mass photometry,,,,subunits per oligomer,2
"ATP2A2 SERCA2a (Homo sapiens, UniProt P16615-2)",itself,SEC,cell lysate,"not purified, endogenous",,subunits per oligomer,2

# Repeated from above:
Molecule,target or system,assay,system,setting,scale,measurement,value
B1 (sso0001 1-202 C32A),itself,SEC,,,,subunits per oligomer,5 protomers
